Measured values collected from several papers.
Each numbered part is a random draw from the data of one study; scales do not carry over between parts. ± gives the spread as reported.
Chain of UniProt P07711 (whole entry, looked up): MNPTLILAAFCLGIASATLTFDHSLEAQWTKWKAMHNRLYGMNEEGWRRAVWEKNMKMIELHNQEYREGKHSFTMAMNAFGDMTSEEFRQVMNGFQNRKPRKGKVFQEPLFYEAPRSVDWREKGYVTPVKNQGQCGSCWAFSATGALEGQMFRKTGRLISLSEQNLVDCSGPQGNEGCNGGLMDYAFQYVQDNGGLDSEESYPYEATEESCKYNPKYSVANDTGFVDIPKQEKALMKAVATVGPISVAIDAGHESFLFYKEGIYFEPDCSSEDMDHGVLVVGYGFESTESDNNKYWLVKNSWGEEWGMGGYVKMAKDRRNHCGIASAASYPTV

Block 1
Cell line: MDA-MB-231/LM2-4
Method: DNS
Time: 72 h
Notes: 10% FBS
Quantity: CC50
Compound = O=C(NCc1ccc(Cl)cc1)c1cn(Cc2ccc(Cl)cc2)c2ccc(Oc3ccccc3)cc2c1=O; result = 49.66 ± 0.02 µM
Compound = O=C(NCc1ccc(C(F)(F)F)cc1)c1cn(Cc2ccc(F)cc2)c2ccc(Oc3ccccc3)cc2c1=O; result = 38.6 ± 0.64 µM
Compound = O=C(NCc1ccc(O)cc1)c1cn(Cc2ccc(F)cc2)c2ccc(Oc3ccccc3)cc2c1=O; result = 58.1 ± 5.36 µM

Further values, each from its own experiment
Structure (SMILES) = CC(C)C[C@H](NC(=O)[C@H]1O[C@@H]1C(=O)O)C(=O)NCCCCN=C(N)N; tested on = Procathepsin L (CTSL, Homo sapiens, UniProt P07711); test = enzyme activity, inhibitor; quantity = IC50; result = 0.0015 µM
Structure (SMILES) = COc1ccc(C[C@H]2NC[C@H](O)[C@H]2OC(C)=O)cc1; tested on = HepG2; test = Click-iT HPG fluorescence; setting = 6.25 µM, 50 µM; scale = reference: DMSO vehicle; quantity = protein translation; result = decreased
Structure (SMILES) = C1=C2CCCN[C@H]2[C@@H]2C[C@H]1[C@H]1CCCCN1C2; tested on = MT4; test = cell viability; setting = 3 days; quantity = CC50; result = > 80 µM

Repeated from above (block 1):
Compound = O=C(NCc1ccc(Cl)cc1)c1cn(Cc2ccc(Cl)cc2)c2ccc(Oc3ccccc3)cc2c1=O; result = 49.66 ± 0.02 µM
